Assay results gathered from unrelated publications.
Lines come from different studies, so protocols differ. Numbers after ± are the reported error.
MCM7: MCM7 (Saccharomyces cerevisiae, UniProt P38132)
Sequence of UniProt P38132 (whole entry, looked up): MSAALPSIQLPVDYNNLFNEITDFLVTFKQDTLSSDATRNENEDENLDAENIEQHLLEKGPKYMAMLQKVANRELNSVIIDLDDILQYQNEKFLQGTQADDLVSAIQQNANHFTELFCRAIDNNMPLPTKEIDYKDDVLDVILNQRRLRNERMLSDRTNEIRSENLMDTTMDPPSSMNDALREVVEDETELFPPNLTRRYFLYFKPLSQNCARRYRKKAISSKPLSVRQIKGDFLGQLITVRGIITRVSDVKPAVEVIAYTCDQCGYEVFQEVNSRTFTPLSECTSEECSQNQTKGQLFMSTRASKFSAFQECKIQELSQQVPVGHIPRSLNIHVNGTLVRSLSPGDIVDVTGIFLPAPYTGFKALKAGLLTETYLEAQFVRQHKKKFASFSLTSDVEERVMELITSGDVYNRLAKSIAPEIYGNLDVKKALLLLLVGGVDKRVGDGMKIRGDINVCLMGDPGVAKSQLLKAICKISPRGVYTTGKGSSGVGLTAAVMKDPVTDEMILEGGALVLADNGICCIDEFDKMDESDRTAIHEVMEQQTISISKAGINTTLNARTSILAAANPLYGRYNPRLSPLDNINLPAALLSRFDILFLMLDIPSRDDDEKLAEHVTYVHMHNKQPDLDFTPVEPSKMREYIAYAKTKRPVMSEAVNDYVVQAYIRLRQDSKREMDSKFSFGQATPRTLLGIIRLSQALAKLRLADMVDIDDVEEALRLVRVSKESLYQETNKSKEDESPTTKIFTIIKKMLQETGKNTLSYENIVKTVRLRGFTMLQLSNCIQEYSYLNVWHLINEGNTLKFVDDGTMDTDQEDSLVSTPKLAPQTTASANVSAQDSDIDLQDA
B1: CRYAA R21Q/G98R (Homo sapiens, UniProt P02489); sequence looked up; chain MDVTIQHPWFKRTLGPFYPSQLFDQFFGEGLFEYDLLPFLSSTISPYYRQSLFRTVLDSGISEVRSDRDKFVIFLDVKHFSPEDLTVKVQDDFVEIHRKHNERQDDHGYISREFHRRYRLPSNVDQSALSCSLSADGMLTFCGPKIQTGLDATHAERAIPVSREEKPTSAPSS
B2: ITGAV/ITGB8 ectodomain, soluble, clasped; chain 1 FNLDVDSPAEYSGPEGSYFGFAVDFFVPSASSRMFLLVGAPKANTTQPGIVEGGQVLKCDWSSTRRCQPIEFDATGNRDYAKDDPLEFKSHQWFGASVRSKQDKILACAPLYHWRTEMKQEREPVGTCFLQDGTKTVEYAPCRSQDIDADGQGFCQGGFSIDFTKADRVLLGGPGSFYWQGQLISDQVAEIVSKYDPNVYSIKYNNQLATRTAQAIFDDSYLGYSVAVGDFNGDGIDDFVSGVPRAARTLGMVYIYDGKNMSSLYNFTGEQMAAYFGFSVAATDINGDDYADVFIGAPLFMDRGSDGKLQEVGQVSVSLQRASGDFQTTKLNGFEVFARFGSAIAPLGDLDQDGFNDIAIAAPYGGEDKKGIVYIFNGRSTGLNAVPSQILEGQWAARSMPPSFGYSMKGATDIDKNGYPDLIVGAFGVDRAILYRARPVITVNAGLEVYPSILNQDNKTCSLPGTALKVSCFNVRFCLKADGKGVLPRKLNFQVELLLDKLKQKGAIRRALFLYSRSPSHSKNMTISRGGLMQCEELIAYLRDESEFRDKLTPITIFMEYRLDYRTAADTTGLQPILNQFTPANISRQAHILLDCGEDNVCKPKLEVSVDSDQKKIYIGDDNPLTLIVKAQNQGEGAYEAELIVSIPLQADFIGVVRNNEALARLSCAFKTENQTRQVVCDLGNPMKAGTQLLAGLRFSVHQQSEMDTSVKFDLQIQSSNLFDKVSPVVSHKVDLAVLAAVEIRGVSSPDHVFLPIPNWEHKENPETEEDVGPVVQHIYELRNNGPSSFSKAMLHLQWPYKYNNNTLLYILHYDIDGPMNCTSDMEINPLRIKISSLQTTEKNDTVAGQGERDHLITKRDLALSEGDIHTLGCGVAQCLKIVCQVGRLDRGKSAILYVKSLLWTETFMNKENQNHSYSLKSSASFNVIEFPYKNLPIEDITNSTLVTTNVTWGIQPAPMPV; chain 2 EDNRCASSNAASCARCLALGPECGWCVQEDFISGGSRSERCDIVSNLISKGCSVDSIEYPSVHVIIPTENEINTQVTPGEVSIQLRPGAEANFMLKVHPLKKYPVDLYYLVDVSASMHNNIEKLNSVGNDLSRKMAFFSRDFRLGFGSYVDKTVSPYISIHPERIHNQCSDYNLDCMPPHGYIHVLSLTENITEFEKAVHRQKISGNIDTPEGGFDAMLQAAVCESHIGWRKEAKRLLLVMTDQTSHLALDSKLAGIVVPNDGNCHLKNNVYVKSTTMEHPSLGQLSEKLIDNNINVIFAVQGKQFHWYKDLLPLLPGTIAGEIESKAANLNNLVVEAYQKLISEVKVQVENQVQGIYFNITAICPDGSRKPGMEGCRNVTSNDEVLFNVTVTMKKCDVTGGKNYAIIKPIGFNETAKIHIHRNCSCQCEDNRGPKGKCVDETFLDSKCFQCDENKCHFDEDQFSSESCKSHKDQPVCSGRGVCVCGKCSCHKIKLGKVYGKYCEKDDFSCPYHHGNLCAGHGECEAGRCQCFSGWEGDRCQCPSAAAQHCVNSKGQVCSGRGTCVCGRCECTDPRSIGRFCEHCPTCYTACKENWNCMQCLHPHNLSQAILDQCKTSCALMEQQHYVDQTSECFSSPSYLR
B3: TIMP2 27-153 (Homo sapiens, UniProt P16035); sequence looked up; chain CSCSPVHPQQAFCNADVVIRAKAVSEKEVDSGNDIYGNPIKRIQYEIKQIKMFKGPEKDIEFIYTAPSSAVCGVSLDVGGKKEYLIAGKAEGDGKMHITLCDFIVPWDTLSTTQKKSLNHRYQMGCE
B4: CCL14 28-93 (UniProt Q16627-1); sequence looked up; chain GPYHPSECCFTYTTYKIPRQRIMDYYETNSQCSKPGIVFITKRGHSVCTNPSDKWVQDYIKDMKEN
B5: CTNNB1 (Homo sapiens, UniProt P35222); sequence looked up; chain MATQADLMELDMAMEPDRKAAVSHWQQQSYLDSGIHSGATTTAPSLSGKGNPEEEDVDTSQVLYEWEQGFSQSFTQEQVADIDGQYAMTRAQRVRAAMFPETLDEGMQIPSTQFDAAHPTNVQRLAEPSQMLKHAVVNLINYQDDAELATRAIPELTKLLNDEDQVVVNKAAVMVHQLSKKEASRHAIMRSPQMVSAIVRTMQNTNDVETARCTAGTLHNLSHHREGLLAIFKSGGIPALVKMLGSPVDSVLFYAITTLHNLLLHQEGAKMAVRLAGGLQKMVALLNKTNVKFLAITTDCLQILAYGNQESKLIILASGGPQALVNIMRTYTYEKLLWTTSRVLKVLSVCSSNKPAIVEAGGMQALGLHLTDPSQRLVQNCLWTLRNLSDAATKQEGMEGLLGTLVQLLGSDDINVVTCAAGILSNLTCNNYKNKMMVCQVGGIEALVRTVLRAGDREDITEPAICALRHLTSRHQEAEMAQNAVRLHYGLPVVVKLLHPPSHWPLIKATVGLIRNLALCPANHAPLREQGAIPRLVQLLVRAHQDTQRRTSMGGTQQQFVEGVRMEEIVEGCTGALHILARDVHNRIVIRGLNTIPLFVQLLYSPIENIQRVAAGVLCELAQDKEAAEAIEAEGATAPLTELLHSRNEGVATYAAAVLFRMSEDKPQDYKKRLSVELTSSLFRTEPMAWNETADLGLDIGAQGEPLGYRQDDPSYRSFHSGGYGQDALGMDPMMEHEMGGHHPGADYPVDGLPDLGHAQDLMDGLPPGDSNQLAWFDTDL
B6: RSPO4/IgG1 Fc RSPO4 32-137 Q65R/N297Q; CPT2 conjugated via azide click; chain GGNCTGCIICSEENGCSTCQQRLFLFIRREGIRRYGKCLHDCPPGYFGIRGQEVNRCKKCGATCESCFSQDFCIRCKRQFYLYKGKCLPTCPPGTLAHQNTRECQGGGGGSGGGGSGGGGS
B7: CYB5R4 (Homo sapiens, UniProt Q7L1T6); chain MLNVPSQSFPAPRSQQRVASGGRSKVPLKQGRSLMDWIRLTKSGKDLTGLKGRLIEVTEEELKKHNKKDDCWICIRGFVYNVSPYMEYHPGGEDELMRAAGSDGTELFDQVHRWVNYESMLKECLVGRMAIKPAVLKDYREEEKKVLNGMLPKSQVTDTLAKEGPSYPSYDWFQTDSLVTIAIYTKQKDINLDSIIVDHQNDSFRAETIIKDCLYLIHIGLSHEVQEDFSVRVVESVGKIEIVLQKKENTSWDFLGHPLKNHNSLIPRKDTGLYYRKCQLISKEDVTHDTRLFCLMLPPSTHLQVPIGQHVYLKLPITGTEIVKPYTPVSGSLLSEFKEPVLPNNKYIYFLIKIYPTGLFTPELDRLQIGDFVSVSSPEGNFKISKFQELEDLFLLAAGTGFTPMVKILNYALTDIPSLRKVKLMFFNKTEDDIIWRSQLEKLAFKDKRLDVEFVLSAPISEWNGKQGHISPALLSEFLKRNLDKSKVLVCICGPVPFTEQGVRLLHDLNFSKNEIHSFTA
Sequence of UniProt O14907 (whole entry, looked up): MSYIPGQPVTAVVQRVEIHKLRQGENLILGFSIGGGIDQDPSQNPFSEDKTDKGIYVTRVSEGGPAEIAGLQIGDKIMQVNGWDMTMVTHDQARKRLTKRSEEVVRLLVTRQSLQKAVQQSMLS
Sequence of UniProt Q00839 (whole entry, looked up): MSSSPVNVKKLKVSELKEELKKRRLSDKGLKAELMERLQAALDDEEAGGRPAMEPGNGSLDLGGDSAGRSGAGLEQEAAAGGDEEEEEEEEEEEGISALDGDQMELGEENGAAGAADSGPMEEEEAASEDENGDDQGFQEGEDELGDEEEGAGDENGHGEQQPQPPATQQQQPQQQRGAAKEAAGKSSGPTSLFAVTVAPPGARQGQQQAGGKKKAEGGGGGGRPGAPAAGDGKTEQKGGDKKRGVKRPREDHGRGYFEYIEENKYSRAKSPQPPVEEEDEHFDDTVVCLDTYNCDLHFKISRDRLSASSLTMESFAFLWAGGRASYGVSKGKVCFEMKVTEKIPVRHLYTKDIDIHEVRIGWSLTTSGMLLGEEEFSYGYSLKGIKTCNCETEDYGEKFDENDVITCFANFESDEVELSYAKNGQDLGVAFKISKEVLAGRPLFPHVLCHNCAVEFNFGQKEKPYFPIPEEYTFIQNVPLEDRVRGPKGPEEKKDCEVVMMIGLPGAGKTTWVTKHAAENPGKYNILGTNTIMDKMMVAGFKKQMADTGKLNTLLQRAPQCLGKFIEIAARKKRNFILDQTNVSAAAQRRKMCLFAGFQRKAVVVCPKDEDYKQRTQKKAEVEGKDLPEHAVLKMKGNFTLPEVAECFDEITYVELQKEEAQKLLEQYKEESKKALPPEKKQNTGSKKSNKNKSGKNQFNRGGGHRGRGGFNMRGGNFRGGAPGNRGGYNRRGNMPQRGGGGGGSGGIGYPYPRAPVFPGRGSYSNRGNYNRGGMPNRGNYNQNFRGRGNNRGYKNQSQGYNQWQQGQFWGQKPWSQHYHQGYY
Sequence of UniProt P01009 (whole entry, looked up): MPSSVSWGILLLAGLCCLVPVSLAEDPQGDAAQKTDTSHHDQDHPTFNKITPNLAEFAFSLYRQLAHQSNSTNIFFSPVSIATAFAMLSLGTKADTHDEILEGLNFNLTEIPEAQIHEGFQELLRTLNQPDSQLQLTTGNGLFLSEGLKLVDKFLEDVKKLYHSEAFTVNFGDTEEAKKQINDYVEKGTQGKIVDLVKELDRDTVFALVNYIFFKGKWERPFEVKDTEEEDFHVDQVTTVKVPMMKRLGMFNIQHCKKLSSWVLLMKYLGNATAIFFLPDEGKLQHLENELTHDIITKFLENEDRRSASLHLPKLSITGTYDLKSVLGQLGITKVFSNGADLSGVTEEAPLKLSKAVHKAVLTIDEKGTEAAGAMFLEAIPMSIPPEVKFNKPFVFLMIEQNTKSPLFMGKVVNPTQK
Sequence of UniProt P00330 (whole entry, looked up): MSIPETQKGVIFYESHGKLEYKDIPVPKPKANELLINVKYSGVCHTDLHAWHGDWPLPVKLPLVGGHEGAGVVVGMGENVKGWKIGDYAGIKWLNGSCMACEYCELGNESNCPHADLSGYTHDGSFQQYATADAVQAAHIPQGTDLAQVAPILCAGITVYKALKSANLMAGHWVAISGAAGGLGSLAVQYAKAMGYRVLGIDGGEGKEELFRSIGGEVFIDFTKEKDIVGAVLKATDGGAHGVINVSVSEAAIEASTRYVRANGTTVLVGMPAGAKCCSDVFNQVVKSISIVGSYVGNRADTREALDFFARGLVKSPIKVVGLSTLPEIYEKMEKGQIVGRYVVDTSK
Sequence of UniProt P32246 (whole entry, looked up): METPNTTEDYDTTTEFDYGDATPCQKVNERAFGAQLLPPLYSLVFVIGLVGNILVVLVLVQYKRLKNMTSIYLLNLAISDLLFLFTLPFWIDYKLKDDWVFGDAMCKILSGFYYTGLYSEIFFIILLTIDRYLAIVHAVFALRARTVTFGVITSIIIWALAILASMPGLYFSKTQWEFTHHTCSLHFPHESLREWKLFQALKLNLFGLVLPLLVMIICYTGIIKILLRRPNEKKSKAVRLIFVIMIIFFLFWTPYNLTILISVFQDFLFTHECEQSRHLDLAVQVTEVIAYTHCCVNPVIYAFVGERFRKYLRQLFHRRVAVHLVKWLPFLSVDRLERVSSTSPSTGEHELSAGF
Sequence of UniProt P09119 (whole entry, looked up): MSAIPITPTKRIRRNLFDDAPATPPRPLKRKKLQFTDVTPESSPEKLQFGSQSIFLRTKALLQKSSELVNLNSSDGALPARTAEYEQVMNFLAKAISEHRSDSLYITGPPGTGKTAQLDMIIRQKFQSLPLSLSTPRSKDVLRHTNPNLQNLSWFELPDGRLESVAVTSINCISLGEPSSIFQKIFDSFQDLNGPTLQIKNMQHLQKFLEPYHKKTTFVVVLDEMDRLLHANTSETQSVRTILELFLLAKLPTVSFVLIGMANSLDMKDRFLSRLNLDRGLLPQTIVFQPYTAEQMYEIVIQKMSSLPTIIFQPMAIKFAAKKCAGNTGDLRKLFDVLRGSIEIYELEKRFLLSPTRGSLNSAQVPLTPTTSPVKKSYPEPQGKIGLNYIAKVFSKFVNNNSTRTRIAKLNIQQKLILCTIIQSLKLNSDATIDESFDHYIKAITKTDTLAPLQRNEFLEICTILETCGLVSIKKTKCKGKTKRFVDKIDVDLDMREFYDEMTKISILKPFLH
Sequence of UniProt Q09312 (whole entry, looked up): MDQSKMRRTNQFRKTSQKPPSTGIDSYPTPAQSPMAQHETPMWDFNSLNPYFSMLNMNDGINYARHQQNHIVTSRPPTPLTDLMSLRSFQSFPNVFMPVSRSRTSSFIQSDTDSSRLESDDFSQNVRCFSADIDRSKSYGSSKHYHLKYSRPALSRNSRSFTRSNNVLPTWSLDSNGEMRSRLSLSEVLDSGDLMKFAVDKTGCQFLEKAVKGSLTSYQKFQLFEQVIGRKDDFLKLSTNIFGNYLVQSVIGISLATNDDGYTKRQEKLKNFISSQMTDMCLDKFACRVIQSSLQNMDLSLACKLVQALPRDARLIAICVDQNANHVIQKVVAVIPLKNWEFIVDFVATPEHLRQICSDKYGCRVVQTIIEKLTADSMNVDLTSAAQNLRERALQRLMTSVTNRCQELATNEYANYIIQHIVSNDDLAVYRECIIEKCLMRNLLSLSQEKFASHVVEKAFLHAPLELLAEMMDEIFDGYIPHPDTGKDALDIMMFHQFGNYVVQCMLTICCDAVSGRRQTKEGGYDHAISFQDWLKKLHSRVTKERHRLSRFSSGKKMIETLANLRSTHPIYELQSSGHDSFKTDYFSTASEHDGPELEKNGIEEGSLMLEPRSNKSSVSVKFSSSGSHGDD
Sequence of UniProt P09238 (whole entry, looked up): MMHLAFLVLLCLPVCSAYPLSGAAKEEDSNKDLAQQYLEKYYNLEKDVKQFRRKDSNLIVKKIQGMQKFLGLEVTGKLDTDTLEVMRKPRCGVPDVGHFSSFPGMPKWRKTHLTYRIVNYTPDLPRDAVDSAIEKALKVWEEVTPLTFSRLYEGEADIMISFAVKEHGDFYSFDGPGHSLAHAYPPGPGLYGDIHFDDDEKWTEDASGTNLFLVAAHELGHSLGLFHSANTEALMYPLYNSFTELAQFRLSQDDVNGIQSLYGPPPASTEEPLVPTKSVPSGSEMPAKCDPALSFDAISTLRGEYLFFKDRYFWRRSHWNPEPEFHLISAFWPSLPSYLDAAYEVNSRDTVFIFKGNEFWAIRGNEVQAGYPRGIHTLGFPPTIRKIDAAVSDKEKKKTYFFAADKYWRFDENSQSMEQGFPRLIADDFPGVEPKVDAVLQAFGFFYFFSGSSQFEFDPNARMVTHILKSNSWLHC
Sequence of UniProt P20827 (whole entry, looked up): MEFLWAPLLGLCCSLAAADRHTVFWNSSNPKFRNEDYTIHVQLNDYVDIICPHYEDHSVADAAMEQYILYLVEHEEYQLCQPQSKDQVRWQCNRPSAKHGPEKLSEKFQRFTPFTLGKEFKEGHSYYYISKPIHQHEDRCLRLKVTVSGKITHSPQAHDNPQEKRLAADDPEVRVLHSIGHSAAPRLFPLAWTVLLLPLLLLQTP

| Substance | partner | assay | system | conditions | scale | measurement | result |
| --- | --- | --- | --- | --- | --- | --- | --- |
| MCM3 (Saccharomyces cerevisiae, UniProt P24279) | MCM7 | cross-linking MS |  | hits only |  | interaction screen | cross-linked |
| HNRNPU (Homo sapiens, UniProt Q00839) | GOLGB1 (Homo sapiens, UniProt Q14789) | cross-linking MS | cells | together with: iqPIR |  | cross-linked residues | K592 to K2433 |
| EPHA2 fragment, auto-phosphorylated (Homo sapiens) | EFNA1 (Homo sapiens, UniProt P20827) | BLI |  | apparent |  | kon | 27000 M⁻¹ s⁻¹ |
| FGB dimer (Homo sapiens) | CDH2 extracellular domain 1-551 (Homo sapiens) | SPR |  | Langmuir fit, together with: CaCl2 |  | kon | 655000 M⁻¹ s⁻¹ |
| B1 (CRYAA R21Q/G98R) | ADH1 (Saccharomyces cerevisiae, UniProt P00330) | EDTA-induced ADH aggregation, absorbance, inhibitor |  | 250 µg |  | ADH aggregation suppression IC50 | 26 µg |
| B2 | TGFB3 fragment, aminocaproic acid, FITC label | fluorescence polarisation |  | together with: CaCl2 1 mM |  | EC50 | 14.7 nM |
| ZNF197 (Homo sapiens, UniProt O14709) | FGG (Homo sapiens, UniProt P02679) | cross-linking MS |  | together with: DSSO |  | cross-linked residues | K591 to K153 |
| MMP9 fragment (Homo sapiens) | Lrp1 (Rattus norvegicus, UniProt G3V928) | Schwann cell migration | Schwann cells | 10 nM, 4 h | relative to: control, higher = more migration | relative migration | 2 fold |
| CDC6 (Saccharomyces cerevisiae, UniProt P09119) | MCM7 | cross-linking MS |  | hits only |  | interaction screen | cross-linked |
| ACRDWTWIQCSG (MP5.1; one disulfide ring) | CTRB1 α-chymotrypsin (Bos taurus, UniProt P00766) | steady-state kinetics | peptide |  |  | Ki | 24 nM |
| B3 (TIMP2 27-153) | MMP10 99-263 (Homo sapiens, UniProt P09238) | enzyme activity, inhibitor, fluorogenic peptide cleavage assay |  |  |  | Ki | 27.1 ± 3 nM |
| ALB (Homo sapiens, UniProt P02768) | KLHDC1 (Homo sapiens, UniProt Q8N7A1) | cross-linking MS |  | together with: DSSO |  | cross-linked residues | K223 to K376 |
| B4 (CCL14 28-93) | CCR1 (Homo sapiens, UniProt P32246) | competition with ligand, radioligand binding |  | together with: 125I-CCL3 50 pM |  | IC50 | 2.6 nM |
| POT1 T416A (Homo sapiens) | ACD (Homo sapiens, UniProt Q96AP0) | co-IP | HEK-293T | POT1 knockout | relative to: wild-type POT1, higher = more TPP1 bound | relative binding | 0.91 |
| KISLEHKTKYSNEYGD (gld-3 879-894 (Caenorhabditis elegans, UniProt Q95ZK7); sequence looked up) | fbf-2 164-575 (Caenorhabditis elegans, UniProt Q09312) | fluorescence polarisation | peptide |  | relative to: wild-type GLD-3, higher = weaker competition | competition decrease | 13 fold |
| FGA (Homo sapiens, UniProt P02671) | NKIRAS2 (Homo sapiens, UniProt Q9NYR9) | cross-linking MS |  | together with: DSSO |  | cross-linked residues | K476 to K106 |

| Substance | partner | assay | system | conditions | scale | measurement | result |
| --- | --- | --- | --- | --- | --- | --- | --- |
| DYNLRB1/DYNLL1/DYNLT1/DYNC1LI2/DYNC1I2/DYNC1H1 dynein-1 complex (Homo sapiens) | KASH5/BICD2 chimera KASH5 CC, BicD2 LIC-BD 1-154, HaloTag | pull-down |  |  |  | Ka | < 1.6e+06 M⁻¹ |
| SLC4A1 (Homo sapiens, UniProt P02730) | HAGH (Homo sapiens, UniProt Q16775) | cross-linking MS |  | together with: DSSO or DMTMM |  | cross-linked residues | E17 to K300 |
| CAM2 (Arabidopsis thaliana, UniProt P0DH97) | MLO2 439-573 (Arabidopsis thaliana, UniProt Q9SXB6) | LacZ reporter, split-ubiquitin yeast two-hybrid |  | 37 °C, together with: oNPG | higher = stronger interaction | β-galactosidase activity | 0.18 U/mg |
| filgrastim (Homo sapiens, UniProt P09919-2) | CSF3R (Homo sapiens, UniProt Q99062) | STAT3-driven luciferase reporter induction, agonist | 293-CSF3R |  |  | EC50 | 0.25 ng/mL |
| GRM6 (Homo sapiens, UniProt O15303) | FGA (Homo sapiens, UniProt P02671) | cross-linking MS |  | together with: DSSO |  | cross-linked residues | K859 to K476 |
| B5 (CTNNB1) | TAX1BP3 (Homo sapiens, UniProt O14907) | FRET | H460 | in cells | relative to: donor-only bleed-through ratio, higher = more interaction | FRET fold increase | 1.7 fold |
| B6 | LGR6 (Homo sapiens, UniProt Q9HBX8) | cell viability | Fc fusion, 293T-LGR6 | 5 days |  | cytotoxic IC50 | 0.3 nM |
| DYNC1H1 (Homo sapiens, UniProt Q14204) | NUMA1 1-705 (Homo sapiens, UniProt Q14980) | time-lapse imaging | Flp-In T-REx mitotic | MG132 pre-incubation, together with: RO3306 |  | cortical dynein loss half-time | 8.6 min |
| STXBP3 (Homo sapiens, UniProt O00186) | ALB (Homo sapiens, UniProt P02768) | cross-linking MS |  | together with: DSSO |  | cross-linked residues | K19 to K499 |
| B7 (CYB5R4) | NGB E60K (Homo sapiens, UniProt Q9NPG2) | NO dioxygenation |  | 750 nM, 37 °C, E60K, together with: NADH 200 µM |  | time | 100 s |
| FGG (Homo sapiens, UniProt P02679) | HARS2 (Homo sapiens, UniProt P49590) | cross-linking MS |  | together with: DSSO |  | cross-linked residues | K231 to K248 |
| CALLLSAPRR (GOT2 (Gallus gallus); fluorescein label) | SSC1 mature (Saccharomyces cerevisiae, UniProt P0CS90) | FP | peptide |  |  | koff | 0.0025 s⁻¹ |
| FGB (Homo sapiens, UniProt P02675) | AK9 (Homo sapiens, UniProt Q5TCS8) | cross-linking MS |  | together with: DSSO |  | cross-linked residues | K328 to K1766 |
| LEIEPRNPKP (SOS1 proline-rich peptide, 1014-1023) | GRB2 1-58 (Homo sapiens, UniProt P62993) | NMR titration | peptide |  |  | chemical shift perturbation | 0.05 ppm |
| SERPINA1 (Homo sapiens, UniProt P01009) | Factor Xa mature, plasma-derived (Homo sapiens) | inhibition kinetics, amidolytic activity |  | together with: heparin 0.1 µM |  | second-order inhibition rate constant | 2500 M⁻¹ s⁻¹ |
